Results collected from several papers.
Parts stem from different laboratories: compare values within a part only. Substitutions count along the parent as printed.

Sample 1 — technique: protein-binding microarray; form: double-stranded DNA, one strand shown; matrix: in vitro; concentration: 250 nM; notes: 60-bp whole probe; with: salmon DNA 0.4 mg/ml; relative to: random background probes; direction: higher = stronger binding; measurement: log fluorescence; all sequences stand within: GCCTAGCAC … GTCTTGATTCGCTTGACGCTGCTG
Target: Interferon regulatory factor 7, full length, phosphomimetic (IRF7, Homo sapiens, UniProt Q92985, residues 1-503, S101K/S471D/S472D/S475D/S476D/S477D/S483D/S484D/S487D)
Residues (chain): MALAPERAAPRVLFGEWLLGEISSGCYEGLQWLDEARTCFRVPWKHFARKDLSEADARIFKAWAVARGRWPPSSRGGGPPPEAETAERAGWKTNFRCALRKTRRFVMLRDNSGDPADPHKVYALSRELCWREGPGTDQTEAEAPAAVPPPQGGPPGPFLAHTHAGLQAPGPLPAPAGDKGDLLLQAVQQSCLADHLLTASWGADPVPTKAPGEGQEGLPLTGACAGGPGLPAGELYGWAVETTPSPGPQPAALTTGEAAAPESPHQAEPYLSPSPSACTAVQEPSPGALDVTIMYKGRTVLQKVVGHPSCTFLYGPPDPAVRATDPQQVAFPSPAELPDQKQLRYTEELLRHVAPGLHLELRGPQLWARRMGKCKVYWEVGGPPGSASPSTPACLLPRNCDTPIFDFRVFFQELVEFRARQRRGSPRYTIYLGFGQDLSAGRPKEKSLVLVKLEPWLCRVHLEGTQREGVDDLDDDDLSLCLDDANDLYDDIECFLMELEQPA
TTCACTCTCTGCTTGTGTCTGTGCTAG: 0.0425 z-score
AACGGACTGGACTATCGGGACGTGCTA: -0.454 z-score
GACGATTTCGGTTCCGAGACGTGCTAG: 2.53 z-score
GATGGTTCCCTTTTCCTGACGTGCTAG: 3.16 z-score
TTAGATTTCAGTTTTGATTAGTGCTAG: 1.62 z-score
TTAGGATTGGGGTTTCGGTTAGTGCTA: 5.26 z-score
TGATTGGTTGAACATGAACTGTGCTAG: 0.114 z-score
GACGGTATCGTTCTCCTGACGTGCTAG: 1.37 z-score
GAGGGACTGCTTTTCCTGACGTGCTAG: 0.367 z-score
GACGGAATCGACTTTCGGGACGTGCTA: 0.56 z-score
GACGTTTTCGGGTATCGGGACGTGCTA: 1.92 z-score
GACTGACTGCTACTGCTGACGTGCTAG: -0.678 z-score
TCATATGTAATCATTCACACTGTGCTA: 0.44 z-score
TTAGATTTCCTACTGCTTTAGTGCTAG: 0.818 z-score
TTAGGACTGCTTATCCTGTAGTGCTAG: -0.138 z-score
ATTTGTTTCCATTTTCTGAAGTGCTAG: 5.03 z-score
TTTGCTTTACTGATGGCCCTGTGCTAG: -0.0437 z-score
GACGGACTGCTTCTGCTGACGTGCTAG: -0.744 z-score
TTAGGACTGCCTATCCTTTAGTGCTAG: -0.0369 z-score
TTCGATATCGGGTATCGATTAGTGCTA: 1.11 z-score
GACGGTCTCCTAATCCTGACGTGCTAG: 0.228 z-score
GACGATTTCGGGTTTCGAGGCGTGCTA: 3.04 z-score
TTAGATTTCAGTATTGATTAGTGCTAG: 0.376 z-score
TCCAGGCTGGTCTCTAACTCAGTGCTA: -1.05 z-score

Sample 2 — technique: RNA Bind-n-Seq; form: RNA; matrix: in vitro; concentration: 365 nM; relative to: no-protein control; direction: higher = stronger binding; measurement: RBNS enrichment (R)
Target: RNA binding protein fox-1 homolog 2, RRM domain, GST-SBP tag (RBFOX2, Homo sapiens, UniProt O43251-10, residues 100-194)
Notes: natural RNA segment, single round, ends assumed
All sequences stand within: GGGAGUUCUACAGUCCGACGAUC … UGGAAUUCUCGGGUGCCAA
Residues (chain): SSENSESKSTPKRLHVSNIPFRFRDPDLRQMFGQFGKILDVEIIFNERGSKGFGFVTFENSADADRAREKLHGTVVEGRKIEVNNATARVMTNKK
CUUCUUAUCCCCAUGCACAGAAACGCUCAGGGUCCCCACGUGCCUGUUGUCCUCCCCUCUAGUCCUUUGUUCCCUUUCUGAGCAUGUGGCCCCUCCCCCGGCUGUGAGGG: 6.22
AUGCUUUUGGGUUUUUAAUAUGCCACUUCUGAGUGAAAACAUCUCGUGGAGUCAUUGUGUUCAGCUCUGAGAAGAACAAAGAUUCAUAGUUCUGUACAUGUGGCUGGAUU: 0.586
UACUUAUGUAUGGAAGAUUACUGCUCUGAGUGAAAUAAAAGUUAUUAGUGCGAGGCAAACAUAACUCAUUUGAGGAUAAAGUUUGUGUUGGAUAUGUGGUUCCUGAUGCA: 12.4
ACUUUGAAUGUGAUGAAAUGACACGUUUGGCUGCAUUUGGAUGGUGUCUUAGAACCCUCAUUGCUCAGACCUGAAGGCUACUUCUAGGAGCAUGAAGUUUGAGUUUUGUG: 1.17
GGUGCCUGGCUUUAACUCCCACCCCUGCUAUGACUCCUCUCUGCAGAGACGCGACUGGCGGCUCCAGCAGGGACUACCUUUCUUAUAAACCCAGGGGGACCACACACACA: 0.461
GCAUAUGCCAGCCACUGCGCUUGGUUCCCAUUUUCUUUGCCAAGGUGUAUUAGCGGACGGCCCUCUGGCCACCUACCCGAGAGAUCGUAGGGUCACAUACAUCCAACUUC: 0.602
GCUUUCUGCUUUCAAAAUUGAGGAAAAUAAACCAGAAAAUGCCAAAAGUACUGUUUUAGCAGUGCACGUUCACUUCCACAGAGACUUUUAGGUGGGACUGUUCCAAGACA: 2.66
CUAUAAGGCUGAGGCAGAAGGUUCCAGAAUUCAAGGACACUCAGGCCUACAUAUAUAGCAAGACUGUGUCAAAAAAAAAAAAAAAAAGUUAGCAUUGCUUUAAUGGACUG: 0.698
GUCUUGUUUUCAUUUGAUUUUUGUUAAGAGUGCAGUAUUGCAGAGUCUAGAGGAAUUUUUGUUUCCUUGAUUAACAUGAUUUUCCUGGUUGUUACAUCCAGGGCAUGGCA: 1.56
AUCUUGAAACAAAGUAAGAAUUCUGAUUCCCAAAAAUAACAAAUUUAAGUGUAUACUUUAGCAGGUGUGUACUAAUUACCAGUAACUUCAACACAAGCAAAGCAGGUUAC: 0.427
AAACACAUGCUUUUGUAUCUUGUCAUAGUUAUCCACAAAUGGCAAAACUGGACUUGAUUCUACUGGUAUGCAAAACAGGCAUGCUAGUAAGCAGUCAGUCGUGGCUCAGA: 0.204
CAACACCAAAAAGAGAAAGUCUGGUUAAAACACCAUGAGUCAAAUGUCGGGCCAGCCAACAGUAACACUUGCCAAGAAGCAUGGCGUAGAAAUUUCUAUGUUCCGAAACA: 0.324

Sample 3 — target: CCNE1, cyclin fold, Cln2 fusion (human); technique: yeast growth competition, sequencing; matrix: yeast; notes: weak parent motif; relative to: not given; direction: higher = stronger binding; measurement: normalised enrichment score
Starting sequence: SLBP docking peptide (human); ARYKRKLLINDFG
L8A: 0.438
K4D: -0.127
G13I: 0.29
D11S: 0.0444
A1F: -0.101
K6G: 0.733
F12V: -0.056
R2E: 0.735
K6L: 0.924
R5Y: -0.0393
R5A L7A: 0.0976
N10M: 0.544
L8V: 0.914
Y3S: 1.3
G13H: 0.429
L8G: 0.768
K6H: -0.428
I9Y: 1.37
N10F: 1.13
K4W: 1.95
L7M: 0.353
G13V: 1.57
A1C: 0.41
F12N: 0.134
R2P: 0.715

Sample 4 — technique: DHFR PCA, deep sequencing; matrix: yeast; with: (+)-ABA 2500 µM; relative to: wild-type fitted maximum; direction: higher = stronger binding; measurement: relative binding score
Target: ABI1, truncated, D143A, DHFR fusion (Arabidopsis thaliana)
Notes: methotrexate growth selection, single substitutions
Starting sequence: PYL1, truncated, DHFR fusion (Arabidopsis thaliana); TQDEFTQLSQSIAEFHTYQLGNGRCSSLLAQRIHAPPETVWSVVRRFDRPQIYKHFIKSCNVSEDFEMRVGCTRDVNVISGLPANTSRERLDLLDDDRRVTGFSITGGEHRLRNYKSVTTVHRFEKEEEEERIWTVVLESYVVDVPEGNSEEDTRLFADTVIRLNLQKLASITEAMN
E129C: 95.4%
L93T: 104%
S171W: 88.2%
R69W: 79.6%
R49F: 87.9%
G71S: 86.3%
F5V: 106%
S59V: 94.1%
C25K: 73.9%
E147T: 94.1%
P37H: 81.4%
T173L: 86.2%
K116G: 86.2%
H110L: 49%
T86I: 86.7%
D96K: 80.5%
H122C: 92.4%
G81N: 80.3%
Q10T: 106%

Sample 5 — target: NFIL3, bZIP domain (human); technique: DHFR protein complementation; matrix: yeast; relative to: wild-type JUN-FOS pair; direction: higher = stronger binding; measurement: binding fitness
Notes: single substitutions, most at no-binding floor
Starting sequence: JUN, bZIP domain (human); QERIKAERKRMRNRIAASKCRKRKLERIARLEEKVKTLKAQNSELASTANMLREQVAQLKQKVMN; partner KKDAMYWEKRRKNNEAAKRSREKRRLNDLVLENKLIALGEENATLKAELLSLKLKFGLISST
K36C: -1.52 natural log
K39M: -1.42 natural log
A57N: -1.29 natural log
L31S: -1.46 natural log
E44H: -1.54 natural log
K34V: -1.07 natural log
K39N: -1.45 natural log
N42T: -1.4 natural log
Q55E: -1.51 natural log
I28D: -1.51 natural log
A46N: -1.44 natural log
E54Y: -1.44 natural log
R53H: -1.47 natural log
L38A: -1.37 natural log
L45K: -1.44 natural log
E33I: -1.54 natural log
R53V: -1.52 natural log
T48G: -1.49 natural log

A few entries again (sample 5):
K39N: -1.45 natural log
N42T: -1.4 natural log
Q55E: -1.51 natural log
I28D: -1.51 natural log
A46N: -1.44 natural log
E54Y: -1.44 natural log
R53H: -1.47 natural log
L38A: -1.37 natural log
L45K: -1.44 natural log
E33I: -1.54 natural log
R53V: -1.52 natural log
